Measured values collected from several papers.
Numbered parts are unrelated; each lists some results of a single study. “And” joins repeats or separate records; there may be more than shown. pIC50: −log10 of the molar value.
Chain of UniProt Q16539 (whole entry, looked up): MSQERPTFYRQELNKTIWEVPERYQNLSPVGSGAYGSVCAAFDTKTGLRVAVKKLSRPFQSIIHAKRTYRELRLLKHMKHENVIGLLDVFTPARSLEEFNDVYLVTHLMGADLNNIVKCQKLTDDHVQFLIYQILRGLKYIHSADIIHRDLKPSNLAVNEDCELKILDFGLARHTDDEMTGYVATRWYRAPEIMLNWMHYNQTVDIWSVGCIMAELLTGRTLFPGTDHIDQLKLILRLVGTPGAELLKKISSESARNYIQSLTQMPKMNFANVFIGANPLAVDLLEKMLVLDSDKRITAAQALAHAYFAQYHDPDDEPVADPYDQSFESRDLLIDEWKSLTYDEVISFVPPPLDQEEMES
Chain of UniProt P31751 (whole entry, looked up): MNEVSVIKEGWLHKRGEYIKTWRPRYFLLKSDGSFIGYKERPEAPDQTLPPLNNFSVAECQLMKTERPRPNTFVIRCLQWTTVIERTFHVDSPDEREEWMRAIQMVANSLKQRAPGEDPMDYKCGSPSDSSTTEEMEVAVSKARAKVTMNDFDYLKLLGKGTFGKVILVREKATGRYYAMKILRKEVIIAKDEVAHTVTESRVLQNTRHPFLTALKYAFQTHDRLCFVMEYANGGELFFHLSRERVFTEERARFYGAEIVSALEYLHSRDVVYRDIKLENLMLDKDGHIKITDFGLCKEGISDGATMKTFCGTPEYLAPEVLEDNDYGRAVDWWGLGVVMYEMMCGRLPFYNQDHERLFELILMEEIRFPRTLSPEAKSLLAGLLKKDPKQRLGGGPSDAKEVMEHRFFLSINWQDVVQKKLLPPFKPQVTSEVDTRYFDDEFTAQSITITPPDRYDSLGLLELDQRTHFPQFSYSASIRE
Chain of UniProt P0C264 (whole entry, looked up): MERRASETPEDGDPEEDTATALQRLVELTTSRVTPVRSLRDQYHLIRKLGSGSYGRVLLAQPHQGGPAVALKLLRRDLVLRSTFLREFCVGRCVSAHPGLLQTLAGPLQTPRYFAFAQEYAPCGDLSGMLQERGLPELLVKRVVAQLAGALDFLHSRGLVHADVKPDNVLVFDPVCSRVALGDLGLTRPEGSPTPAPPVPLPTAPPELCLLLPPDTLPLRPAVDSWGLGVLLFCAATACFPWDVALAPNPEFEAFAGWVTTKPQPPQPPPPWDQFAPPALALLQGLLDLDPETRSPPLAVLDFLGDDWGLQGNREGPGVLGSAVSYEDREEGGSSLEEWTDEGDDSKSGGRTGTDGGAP
Chain of UniProt O75676 (whole entry, looked up): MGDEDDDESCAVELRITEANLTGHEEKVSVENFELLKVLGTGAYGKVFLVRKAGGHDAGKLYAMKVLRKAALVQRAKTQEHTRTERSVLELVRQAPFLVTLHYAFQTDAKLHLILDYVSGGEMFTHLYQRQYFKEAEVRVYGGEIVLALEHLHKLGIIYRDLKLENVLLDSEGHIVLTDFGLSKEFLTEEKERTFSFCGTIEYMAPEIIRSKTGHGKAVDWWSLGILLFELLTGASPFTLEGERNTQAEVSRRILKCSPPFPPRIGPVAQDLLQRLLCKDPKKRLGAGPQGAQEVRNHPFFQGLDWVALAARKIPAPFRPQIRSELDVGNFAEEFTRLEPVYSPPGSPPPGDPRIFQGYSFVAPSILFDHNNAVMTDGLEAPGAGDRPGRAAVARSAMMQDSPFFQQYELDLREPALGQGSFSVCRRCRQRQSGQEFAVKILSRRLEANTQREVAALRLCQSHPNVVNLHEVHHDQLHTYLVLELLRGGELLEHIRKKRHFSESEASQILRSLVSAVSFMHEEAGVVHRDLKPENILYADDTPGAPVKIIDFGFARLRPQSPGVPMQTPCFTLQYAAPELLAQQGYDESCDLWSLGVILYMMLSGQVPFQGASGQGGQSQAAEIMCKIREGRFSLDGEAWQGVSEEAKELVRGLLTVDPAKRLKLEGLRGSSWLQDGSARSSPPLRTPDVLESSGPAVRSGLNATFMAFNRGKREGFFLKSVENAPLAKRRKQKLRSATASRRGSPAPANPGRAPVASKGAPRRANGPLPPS

Sample 1
SMILES: NC/C(=C\F)COc1ccc(Cn2c(=S)[nH]c(=O)c3[nH]cnc32)cc1
Effect on: enzyme activity
MPO: Myeloperoxidase (MPO, Homo sapiens, UniProt P05164)
Chain of UniProt P05164 (whole entry, looked up): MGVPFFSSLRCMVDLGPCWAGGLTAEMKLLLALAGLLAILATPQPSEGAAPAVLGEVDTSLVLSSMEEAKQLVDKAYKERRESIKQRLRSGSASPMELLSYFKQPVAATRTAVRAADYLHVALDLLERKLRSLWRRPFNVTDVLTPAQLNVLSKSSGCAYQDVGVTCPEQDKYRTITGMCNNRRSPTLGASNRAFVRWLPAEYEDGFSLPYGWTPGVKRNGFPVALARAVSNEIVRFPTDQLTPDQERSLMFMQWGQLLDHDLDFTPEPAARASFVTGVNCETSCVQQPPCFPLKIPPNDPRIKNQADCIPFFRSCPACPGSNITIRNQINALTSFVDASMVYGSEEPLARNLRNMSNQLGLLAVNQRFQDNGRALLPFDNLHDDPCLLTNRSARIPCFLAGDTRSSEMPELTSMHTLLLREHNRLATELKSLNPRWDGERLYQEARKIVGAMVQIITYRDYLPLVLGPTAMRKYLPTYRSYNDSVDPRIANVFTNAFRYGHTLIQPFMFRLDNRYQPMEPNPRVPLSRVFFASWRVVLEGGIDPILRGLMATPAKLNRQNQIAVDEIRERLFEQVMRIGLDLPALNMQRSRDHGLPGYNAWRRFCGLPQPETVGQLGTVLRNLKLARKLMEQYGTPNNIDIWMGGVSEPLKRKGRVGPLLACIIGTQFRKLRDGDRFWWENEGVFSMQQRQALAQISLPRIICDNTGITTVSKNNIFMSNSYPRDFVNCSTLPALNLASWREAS
AOC3: Amine oxidase [copper-containing] 3 (AOC3, Homo sapiens, UniProt Q16853)
Chain of UniProt Q16853 (whole entry, looked up): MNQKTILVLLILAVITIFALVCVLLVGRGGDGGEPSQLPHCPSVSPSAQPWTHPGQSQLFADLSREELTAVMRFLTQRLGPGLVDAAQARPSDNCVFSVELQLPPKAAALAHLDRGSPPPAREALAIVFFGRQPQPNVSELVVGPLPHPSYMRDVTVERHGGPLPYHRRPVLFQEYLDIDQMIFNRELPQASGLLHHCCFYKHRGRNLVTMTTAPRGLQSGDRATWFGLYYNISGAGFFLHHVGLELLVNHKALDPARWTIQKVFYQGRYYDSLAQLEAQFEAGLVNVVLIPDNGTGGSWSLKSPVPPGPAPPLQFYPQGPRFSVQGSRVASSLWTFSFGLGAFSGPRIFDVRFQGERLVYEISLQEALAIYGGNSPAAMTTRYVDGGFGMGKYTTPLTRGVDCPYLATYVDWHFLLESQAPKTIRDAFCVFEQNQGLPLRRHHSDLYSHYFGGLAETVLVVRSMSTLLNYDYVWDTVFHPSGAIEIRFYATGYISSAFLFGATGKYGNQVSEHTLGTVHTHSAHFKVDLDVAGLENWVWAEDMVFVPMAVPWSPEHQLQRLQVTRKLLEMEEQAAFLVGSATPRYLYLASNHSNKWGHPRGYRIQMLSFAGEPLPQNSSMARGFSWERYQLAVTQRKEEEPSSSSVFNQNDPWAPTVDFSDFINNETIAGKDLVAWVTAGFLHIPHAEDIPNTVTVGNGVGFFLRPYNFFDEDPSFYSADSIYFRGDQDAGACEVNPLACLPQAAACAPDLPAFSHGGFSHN
target	mode	method	tested at	inhibition
MPO	inhibitor	fluorescence	13.7 nM	-1.41%
MPO	–	–	0.0152 µM	-20.2% and -3.76%
AOC3	inhibitor	fluorescence	0.1111 µM	104%
MPO	inhibitor	fluorescence	500 pM	-6.92%
MPO	–	–	11.11 µM	25.9% and 28.9%
AOC3	inhibitor	fluorescence	37 nM	101%

Sample 2
Compound: C[C@@H]1CN(c2ccc(-c3cc(C(=O)NCCOCCOCCOCCOCCNC(=O)/C=C/c4[nH]cc(C(=O)N[C@@H](CC(N)=O)c5ccc(F)c(Cl)c5)c4-c4ccc(Cl)cc4F)ccc3F)cc2NC(=O)c2c[nH]c(=O)cc2C(F)(F)F)C[C@H](C)N1C
Effect on: thermal unfolding
Method: differential scanning fluorimetry
Tested at: 5.5 µM
Reading: higher = more unfolded
WDR5: WD repeat-containing protein 5 (WDR5, Homo sapiens, UniProt P61964)
DCAF1: DDB1- and CUL4-associated factor 1 (DCAF1, Homo sapiens, UniProt Q9Y4B6)
Chain of UniProt Q9Y4B6 (whole entry, looked up): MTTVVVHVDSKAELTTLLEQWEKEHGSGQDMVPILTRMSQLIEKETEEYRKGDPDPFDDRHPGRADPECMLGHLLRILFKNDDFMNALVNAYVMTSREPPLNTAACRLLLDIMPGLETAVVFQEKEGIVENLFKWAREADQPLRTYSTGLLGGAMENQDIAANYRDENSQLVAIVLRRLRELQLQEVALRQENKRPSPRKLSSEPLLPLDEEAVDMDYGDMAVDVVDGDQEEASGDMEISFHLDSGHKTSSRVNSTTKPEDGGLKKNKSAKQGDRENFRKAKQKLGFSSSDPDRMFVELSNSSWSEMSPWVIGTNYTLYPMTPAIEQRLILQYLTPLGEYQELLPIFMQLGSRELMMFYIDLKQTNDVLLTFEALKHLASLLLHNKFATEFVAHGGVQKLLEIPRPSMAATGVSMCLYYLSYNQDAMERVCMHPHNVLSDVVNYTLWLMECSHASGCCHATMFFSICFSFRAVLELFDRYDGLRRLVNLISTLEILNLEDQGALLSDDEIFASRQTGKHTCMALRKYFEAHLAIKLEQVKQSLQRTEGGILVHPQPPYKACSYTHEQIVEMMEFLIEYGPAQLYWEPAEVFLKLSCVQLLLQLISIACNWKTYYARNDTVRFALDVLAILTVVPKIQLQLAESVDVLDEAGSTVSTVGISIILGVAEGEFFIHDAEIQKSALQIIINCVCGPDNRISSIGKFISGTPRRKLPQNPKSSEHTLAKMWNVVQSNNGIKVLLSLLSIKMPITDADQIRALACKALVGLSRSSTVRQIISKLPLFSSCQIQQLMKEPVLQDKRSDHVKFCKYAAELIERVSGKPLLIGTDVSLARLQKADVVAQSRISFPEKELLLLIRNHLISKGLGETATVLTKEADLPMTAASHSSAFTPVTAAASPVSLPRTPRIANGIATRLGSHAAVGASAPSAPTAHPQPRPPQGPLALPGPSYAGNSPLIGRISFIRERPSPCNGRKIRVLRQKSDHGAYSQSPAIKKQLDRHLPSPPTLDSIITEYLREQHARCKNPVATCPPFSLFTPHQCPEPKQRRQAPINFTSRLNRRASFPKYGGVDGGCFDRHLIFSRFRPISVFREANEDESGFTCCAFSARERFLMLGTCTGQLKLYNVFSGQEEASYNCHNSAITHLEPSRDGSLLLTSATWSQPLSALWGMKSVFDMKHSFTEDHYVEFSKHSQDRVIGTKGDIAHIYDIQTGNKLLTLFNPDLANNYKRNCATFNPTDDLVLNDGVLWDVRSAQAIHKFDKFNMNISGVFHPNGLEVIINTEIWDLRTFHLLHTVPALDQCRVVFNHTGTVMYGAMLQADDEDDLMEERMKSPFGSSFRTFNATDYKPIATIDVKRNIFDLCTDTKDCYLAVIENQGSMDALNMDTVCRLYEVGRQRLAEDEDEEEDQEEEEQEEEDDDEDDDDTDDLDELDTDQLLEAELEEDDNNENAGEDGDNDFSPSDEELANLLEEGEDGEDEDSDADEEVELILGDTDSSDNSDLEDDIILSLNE
target	temperature	SYPRO Orange fluorescence [a.u.]
WDR5	30 °C	12700
DCAF1	51.4 °C	16400
DCAF1	49.2 °C	14800
DCAF1	37.8 °C	10900
WDR5	34.6 °C	13200
WDR5	79.81 °C	39900
DCAF1	74.41 °C	50700
DCAF1	71.01 °C	54600
DCAF1	29.6 °C	9470
WDR5	78.41 °C	35600
WDR5	88.01 °C	53200

Sample 3
Structure (SMILES): COc1cc(-c2nc3ccc(C(=O)NCCCN(C)C)cc3n2C2CCC2)cc(OC)c1OC
Method: NanoBRET
Tested at: 1 µM
target	target occupancy [%]
ULK3 (Homo sapiens, UniProt Q6PHR2)	-0.41
NEK1 (Homo sapiens, UniProt Q96PY6)	2.18
MAPK14 (Homo sapiens, UniProt Q16539)	-7.88
RPS6KA4 (Homo sapiens, UniProt O75676)	3.16
TLK1 (Homo sapiens, UniProt Q9UKI8)	1.51
Cyclin-dependent kinase 3, with cyclin E1 (CDK3, Homo sapiens, UniProt Q00526)	0.23
Cyclin-dependent kinase 6, with cyclin D1 (CDK6, Homo sapiens, UniProt Q00534)	-0.69
PRKCE (Homo sapiens, UniProt Q02156)	1.06
PRKACB (Homo sapiens, UniProt P22694)	1.56
MELK (Homo sapiens, UniProt Q14680)	3.6
PTK2B (Homo sapiens, UniProt Q14289)	-8
SBK3 (Homo sapiens, UniProt P0C264)	-2.75
FES (Homo sapiens, UniProt P07332)	1.29
AKT2 (Homo sapiens, UniProt P31751)	-1.22
PLK4 (Homo sapiens, UniProt O00444)	-1.24
RPS6KA3 (Homo sapiens, UniProt P51812)	-5.46

Mixed results
Compound	target	assay	system	setting	measurement	result
CCN1/C(=C/C=C2\CCCC(/C=C/C3=[N+](CC)c4ccccc4C3(C)C)=C2NCCCCN2CCC(Nc3nc4ccccc4n3Cc3ccc(F)cc3)CC2)C(C)(C)c2ccccc21	Voltage-gated inwardly rectifying potassium channel KCNH2 (KCNH2, Homo sapiens, UniProt Q12809)	ligand displacement, radioligand	HEK293	80 min, cell membranes	pIC50	7.52

For quick reference, copied from above (sample 3):
target	target occupancy [%]
ULK3 (Homo sapiens, UniProt Q6PHR2)	-0.41
NEK1 (Homo sapiens, UniProt Q96PY6)	2.18
MAPK14 (Homo sapiens, UniProt Q16539)	-7.88
RPS6KA4 (Homo sapiens, UniProt O75676)	3.16
TLK1 (Homo sapiens, UniProt Q9UKI8)	1.51
